# Measurements collected from several papers.
# Lines come from different studies, so protocols differ. Several values in a cell are separate wells, animals, samples, runs or records. ± marks the error that the study gave.
SMILES,cell line,test,conditions,scale,endpoint,value
CCn1cc(-c2cc(Cn3ccnc3)cc3c2CCN([C@H](c2cc(OC)ccn2)C2CC2)C3=O)c(C(F)(F)F)n1,SW1271,"cell growth, inhibitor",120 h,,EC50,> 30 µM
C[C@]12CC[C@@H]3c4ccc(O)cc4C[C@@H](CCCCCCCCC[S+]([O-])CCCC(F)(F)C(F)(F)F)[C@H]3[C@@H]1CC[C@@H]2O (stereo partly drawn),"MCF7 3xERE-luc, steroid-deprived","ERE luciferase reporter, agonist",,reference: vehicle,Emax,-5.89%
O=C(C[C@@H](C(F)F)n1ccc(F)n1)N1CCC(O)(Cn2cnc3c(cnn3-c3ccc(F)cc3)c2=O)CC1,CHP-212 parental,PI flow cytometry,"1 µM, 24 h",,G2/M phase cells,9.49%
C=CC(=O)N1CCC[C@@H](c2ccc(C(N)=O)c3[nH]ccc23)C1,TMD8 wild-type,"calcium flux, FLIPR","4 h preincubation, with: anti-IgM",,maximum inhibition,32.7%
CCN1CCN(Cc2ccc(NC(=O)c3ccc(C)c(-c4ccc5nc(NC(=O)C6CC6)cn5c4)c3)cc2C(F)(F)F)CC1,MUTZ5 B-ALL cells,CellTiter-Glo,"concentration not given, 3 d",,cell proliferation,inhibited
O=c1cc(-c2ccc(O)cc2)oc2c([C@@H]3OC[C@H](O)[C@H](O)[C@H]3O)c(O)c([C@@H]3O[C@H](CO)[C@@H](O)[C@H](O)[C@H]3O)c(O)c12,AC16,CCK-8,"40 to 80 ng/mL, 24 h",,viability,increased
Cc1cccc(-c2[nH]c(CNc3ccccc3F)nc2-c2ccc3ncnn3c2)n1,MM1.S,XTT,2 µM,,viability,13% and 16% and 22%
O=C(CCc1ccc(O)cc1)c1c(O)cc(O)cc1O,Caco-2 monolayers,,"100 µg/mL, 90 min onward",reference: 0 min value,TEER,120%
C=C[C@@]1(C)CC(=O)[C@]2(O)[C@@]3(C)[C@@H](O)CCC(C)(C)[C@@H]3[C@H](O)[C@H](OC(C)=O)[C@@]2(C)O1,PBMC,MSD,"0.01 µM, unit not given, with: PGE2",reference: DMSO,cAMP level difference,-3.03
Cn1cc(-n2cnc3c(NCc4nc5cc(Cl)c(Cl)cc5[nH]4)nc(N4CCOCC4)nc32)cn1,MDA-MB-231,"qRT-PCR, item: RAD51","50 nM, 6 h, unit not given",reference: untreated,mRNA level,0.63
COc1ccc(CC(=O)N(Cc2ccncc2)Cc2cccc(OCCc3ccc(F)cc3)c2)cc1,L-363,immunoblot,"15 µM, 18 h",,MCL-1 protein level,decreased
COc1cc(/C=C/C(=O)N2CCC=CC2=O)cc(OC)c1OC,MDA-MB-468,"quantitative RT-PCR, item: GPX4","30 µM, 8 h",reference: untreated cells,mRNA level,98.7 ± 12.1%
O=C(NCCc1c[nH]c2ccccc12)C(=O)c1c[nH]c2ccc(F)cc12,"BxPC-3, MDA-MB-231, PC-3, HeLa, C4-2, HEK293T",MTT,100 µM,,cytotoxicity,not toxic
C=CC1=C(C)c2cc3[n-]c(cc4nc(cc5[n-]c(cc1n2)c(C)c5C=C)C(C)=C4CCC(=O)O)c(CCC(=O)O)c3C.[Zn+2],SH-SY5Y,"RNA-seq, item: CD274 mRNA","5 µM, 5 h",reference: untreated cells,fold change,2.16
C[C@H](Nc1ccc2c(c1)OCCn1cc(N3C(=O)OC[C@H]3C(F)F)nc1-2)C(N)=O,HuH-28,CellTiter-Glo GR metrics,120 h,,GR Hill coefficient,0.157
Cc1ccc(CNC(=O)Cn2cc(CSc3nc4ccccc4[nH]3)nn2)cc1,Caco-2,MTT,15.6 ppm,,cytotoxicity,60%
O=C(/C=C/C=C/C=C/C1CCCCC1)NC1=C[C@@](O)(/C=C/C=C/C=C/C(=O)NC2=C(O)CCC2=O)[C@@H]2O[C@@H]2C1=O,SW1271,"cell growth, CellTiter-Glo",78 h,,GI50,9.93 µM
CCc1c(-c2ccccc2)c(-c2ccccc2)nn1-c1ccccc1-c1cccc(OCC(=O)O)c1,mouse bone marrow macrophages,osteoclast formation,with: M-CSF + sRANKL,,log IC50,-0.0494
Nc1cccc2c1C(=O)N(C1CCC(=O)NC1=O)C2=O (stereo not drawn),bone marrow CD138+ myeloma cells,XTT,"1.6 µM, phenol red-free RPMI",,viability,25%
COc1cnc2cccc(N3CCc4c(cc(Cn5ccnc5C)cc4-c4cn(C)nc4C(F)(F)F)C3=O)c2c1,SNU-398,"cell growth, inhibitor",120 h,,EC50,1.33 µM
CC#CC(=O)N1CCC[C@H]1c1nc(-c2ccc(C(=O)Nc3ccccn3)cc2)c2c(N)nccn12,TMD8 wild-type,"calcium flux, FLIPR","1 h preincubation, with: anti-IgM",,maximum inhibition,76.1%
COCCOCCOCc1n(Cc2ccc3ccccc3c2)c2ccccc2[n+]1Cc1ccc2ccccc2c1,NSCLC cell lines,NCI60 one-dose screen,10 µM,,mean growth percentage,13.6%
Cc1cc(Nc2ncc(Cl)c(Nc3ccccc3S(=O)(=O)C(C)C)n2)c(OC(C)C)cc1C1CCNCC1,CLB-BAR,"phosphoproteomics LC-MS/MS, item: SLC20A2 phosphorylation","200 nM, 60 min",reference: untreated,log2 fold change,-2.56
COc1ccc(C2CC(c3ccccc3Cl)Nc3nc(N)nn32)cc1OC (stereo not drawn),MEF with TRE-FLAG-LMNB1,"LMNB1 level, high-content screening",250 µM,,maximum inhibition,22%
CC/C(=N\NC(=O)C(C)Nc1ccccc1)c1ccc(O)c(C)c1O (stereo not drawn),SK-OV-3,Western blot,"10 µM, 1 h, 2D culture, unit not given",reference: DMSO,TAZ band intensity,0.44 ± 0.15
O=C1[C@H]2CCCN2[C@H](c2cccc3c2OCO3)N1c1ccc(Cl)c(Cl)c1 (racemic),"PC-12, differentiated",,"50 µM, 4 days",,mutant huntingtin-induced cytotoxicity,decreased
CCn1cc(-c2cc(Cn3ccoc3=N)cc3c2CCN([C@@H](C)c2cc(OC)ccn2)C3=O)c(C(F)(F)F)n1,NCI-H2228,"cell growth, inhibitor",120 h,,EC50,8.91 µM
Cc1n(Cc2ccc3ccccc3c2)c2ccccc2[n+]1Cc1ccc2ccccc2c1,NSCLC cell lines,NCI60 one-dose screen,10 µM,,mean growth percentage,-26.8%
Cc1ccc2c(c1)C(=O)[C@]1(O)CCN(c3ccc4nc(C)ccc4c3)C1=N2.Cl,murine cells,"polysome RT-qPCR, item: PDGFRα",5 µM,,polysomal mRNA increase,~50%
CCCCc1nc(Cl)c(CO)n1Cc1ccc(-c2ccccc2-c2nn[nH]n2)cc1,human PBMC,"RNA-seq, item: ELOVL7 mRNA","10 µg/mL, 24 h",reference: untreated control,log2 fold change,2.04
CCc1cnc(N2CCC(c3nc(COc4ccc(-n5cnnn5)cc4)cs3)CC2)nc1,HEK293T,"RNA-seq, item: DNAJB1 mRNA","10 µM, 6 h",reference: vehicle,log2 fold change,-0.418
COc1ccc(-n2nc(C(C)=O)s/c2=N\N=C(/C)c2ccc(NC(=O)c3ccc(Cl)cc3)cc2)cc1,HepG2,,0.156 µM,,toxicity,75.1%
C=CC(=O)Nc1cc2c(Nc3ccc(OCc4ccccn4)c(Cl)c3)ncnc2cc1OCCN1CCOCC1,NCI-H2073 EGFR ASV knock-in,"cell proliferation, CellTiter-Glo",,reference: knock-in over parental NCI-H2073,selectivity ratio,0.8
O=C(Nc1nnc2n3c(=S)[nH][nH]c3nc(-c3ccc(Cl)cc3)c1-2)c1ccccc1,SF-539,SRB,"10 µM, NCI60 single-dose screen",reference: untreated,cell growth,85.4%
Cn1c(Nc2nc3ccc(C(F)(F)F)cc3s2)nc2cc(C(=O)NCCOCCO)ccc21,SH-SY5Y,"RNA-seq, item: ELL2 mRNA","5 µM, 5 h",reference: untreated cells,fold change,2.33
CC(C)(C)c1cc(NC(=O)Cc2ccc(Nc3ncnc4sccc34)cc2)no1,LC-2/ad,resazurin,concentration not given,,growth inhibition,decreased
CCCCc1n(Cc2ccc3ccccc3n2)cc[n+]1Cc1ccc2ccccc2n1,NSCLC cell lines,NCI60 one-dose,"10 µM, average over cell lines",,growth,25 to 31.8%
[Cl-].[Cl-].[Os+2].c1cnc2c(c1)ccc1cccnc12.c1cnc2c(c1)ccc1cccnc12.c1cnc2c(c1)ccc1cccnc12,SK-MEL-28,resazurin,"normoxia, with: green light 523 nm",reference: dark EC50 over light EC50,phototherapeutic index,2
C=CCn1c(=O)c2cnc(Nc3ccc(N4CCN(C)CC4)cc3)nc2n1-c1ccc2c(n1)[C@@](O)(CC)CC2,Kuramochi,flow cytometry,concentration not given,,S phase cells,33.7%
CC/C(=N\NC(=O)NCc1cccc(O)c1)c1ccc(O)c(C)c1O,SK-OV-3,"gene expression, microarray, item: LRRN4","10 µM, 24 h",reference: DMSO,log ratio,3.26
CCCCN1C[C@H](O)[C@@H](O)[C@@H](O)[C@H]1CO,sample B patient fibroblasts,"acidic compartment staining, LysoTracker Red imaging",216 h,,IC50,13.6 µM
Cn1cc(-c2ccc(-c3cncc(Cl)c3N3CCC4(CCNC4=O)CC3)cc2)cn1,COLO 205,"gene expression, microarray, item: CASP1 mRNA","concentration not given, 6 h",reference: untreated cells,log2 fold change,2.28
"CC(=O)c1c(O)c(C)c(O)c2c1OC1=CC(=O)C(C(C)=O)C(=O)C12C (single isomer, unassigned; (+))","hepatocytes, iPSC-derived, line L1",cell viability,24 h,,IC50,15 µM
CC1(C)CCC2(CC1)N[C@@H](C(=O)N[C@@H]1CC[C@@H](C(N)=O)OC1)[C@H](c1ccnc(Cl)c1F)[C@]21C(=O)Nc2cc(Cl)ccc21,well-differentiated liposarcoma cells (MDM2 amplified),"cell proliferation, alamarBlue",72 h,,GI50,0.053 µM
O=C(Nc1c(Cl)cncc1Cl)c1ccc(OC(F)F)c(OCC2CC2)c1,PBMC,MSD,"0.001 µM, unit not given, with: PGE2",reference: DMSO,cAMP level difference,-1.66
CC(C)NCC(O)c1ccc(O)c(O)c1 (stereo not drawn),mouse ventricular cardiomyocytes,,"dose not given, 0.163 s",,sarcomere length,1.59 µm
OCc1n(Cc2ccc3ccccc3c2)cc[n+]1Cc1ccc2ccccc2c1,NSCLC cell lines,,"10 µM, average over cell lines",reference: untreated,growth,60.7%
Nc1ncnc2c1ncn2[C@@H]1O[C@H](CO)[C@@H](O)[C@H]1O,activated human T cells,item: inosine,30 µM,reference: DMSO,log2 fold change,1.4 and 1.6 and 1.8

# Some of these lines once more:
SMILES,cell line,test,conditions,scale,endpoint,value
COc1ccc(CC(=O)N(Cc2ccncc2)Cc2cccc(OCCc3ccc(F)cc3)c2)cc1,L-363,immunoblot,"15 µM, 18 h",,MCL-1 protein level,decreased
C=CC(=O)Nc1cc2c(Nc3ccc(OCc4ccccn4)c(Cl)c3)ncnc2cc1OCCN1CCOCC1,NCI-H2073 EGFR ASV knock-in,"cell proliferation, CellTiter-Glo",,reference: knock-in over parental NCI-H2073,selectivity ratio,0.8
O=C1[C@H]2CCCN2[C@H](c2cccc3c2OCO3)N1c1ccc(Cl)c(Cl)c1 (racemic),"PC-12, differentiated",,"50 µM, 4 days",,mutant huntingtin-induced cytotoxicity,decreased
CCn1cc(-c2cc(Cn3ccnc3)cc3c2CCN([C@H](c2cc(OC)ccn2)C2CC2)C3=O)c(C(F)(F)F)n1,SW1271,"cell growth, inhibitor",120 h,,EC50,> 30 µM
Cn1c(Nc2nc3ccc(C(F)(F)F)cc3s2)nc2cc(C(=O)NCCOCCO)ccc21,SH-SY5Y,"RNA-seq, item: ELL2 mRNA","5 µM, 5 h",reference: untreated cells,fold change,2.33
CCc1cnc(N2CCC(c3nc(COc4ccc(-n5cnnn5)cc4)cs3)CC2)nc1,HEK293T,"RNA-seq, item: DNAJB1 mRNA","10 µM, 6 h",reference: vehicle,log2 fold change,-0.418
COCCOCCOCc1n(Cc2ccc3ccccc3c2)c2ccccc2[n+]1Cc1ccc2ccccc2c1,NSCLC cell lines,NCI60 one-dose screen,10 µM,,mean growth percentage,13.6%
CCCCN1C[C@H](O)[C@@H](O)[C@@H](O)[C@H]1CO,sample B patient fibroblasts,"acidic compartment staining, LysoTracker Red imaging",216 h,,IC50,13.6 µM
